Results collected from several papers.
Every numbered part comes from another study and shows a few of its results, in no order.

Study 1
Target: Prothrombin, mature alpha-thrombin (F2, Homo sapiens, UniProt P00734)
Method: aptamer microarray, sandwich
Form: DNA with 2'F-ANA
Medium: in vitro
Tested at: 200 nM
Setting: whole 15-mer aptamer, many near background
Together with: Cy3 exosite-II aptamer, 400 nM
Reading: higher = stronger binding
Sequence: GGTTGGTGTGGTTGG
Under “mean fluorescence intensity”, `2'F-ANA at 2 3 4 5 9 10 11 12 14 15` is recorded as 49.3 a.u.
`2'F-ANA at 2 5 6 7 9 11 14 15` — result for “mean fluorescence intensity”: 48.8 a.u.
For `2'F-ANA at 1 4 6 7 8 9 14`, “mean fluorescence intensity” read 52.7 a.u.
`2'F-ANA at 2 4 6 7 8 10 11 12 15`: “mean fluorescence intensity” 98.8 a.u.
Under “mean fluorescence intensity”, `2'F-ANA at 1 3 5 7 8 11 12` is recorded as 111 a.u.
Under “mean fluorescence intensity”, `2'F-ANA at 1 3 4 13 14` is recorded as 66.4 a.u.
`2'F-ANA at 3 7 10 14`: “mean fluorescence intensity” 467 a.u.
Under “mean fluorescence intensity”, `2'F-ANA at 1 2 3 6 7 11 14 15` is recorded as 61 a.u.
`2'F-ANA at 1 2 3 4 6 7 8 11 12 13 14 15` — result for “mean fluorescence intensity”: 68.6 a.u.
For `2'F-ANA at 2 3 5 8 12 14 15`, “mean fluorescence intensity” read 65.6 a.u.
`2'F-ANA at 1 4 5 6 7 8 9 10 15` — result for “mean fluorescence intensity”: 48.2 a.u.
For `2'F-ANA at 1 4 10 15`, “mean fluorescence intensity” read 50.6 a.u.
`2'F-ANA at 3 5 7 8 11 14`: “mean fluorescence intensity” 59.7 a.u.
For `2'F-ANA at 1 5 6 7 10 14 15`, “mean fluorescence intensity” read 54.8 a.u.
Under “mean fluorescence intensity”, `2'F-ANA at 1 4 6 7 9 13` is recorded as 72.7 a.u.
For `2'F-ANA at 2 4 5 8 9 11 13`, “mean fluorescence intensity” read 55 a.u.
`2'F-ANA at 5 13`: “mean fluorescence intensity” 56.3 a.u.
`2'F-ANA at 6 8 9 10 11 12 13 15`: “mean fluorescence intensity” 151 a.u.
`2'F-ANA at 2 5 6 9 10 13 14 15` — result for “mean fluorescence intensity”: 47.7 a.u.
For `2'F-ANA at 1 11 12 13 14 15`, “mean fluorescence intensity” read 68.2 a.u.

Study 2
Target: Fragile X messenger ribonucleoprotein 1, C-terminal low-complexity region (Fmr1, Mus musculus, UniProt P35922)
Method: RNA Bind-n-Seq
Form: RNA
Medium: in vitro
Tested at: 200 nM
Setting: whole 134-nt RNA, ends assumed
Together with: 150 mM LiCl
Reference: input library
Reading: higher = stronger binding
All molecules: 7-deaza-guanosine replaces G
Shared flanks, not repeated: GGGAGUUCUACAGUCCGACGAUC … UGGAAUUCUCGGGUGUCAAGG
The log2 enrichment of `CAAGUCCUGUGCUACACAUCGUAUGUACCGAAUCGGGCCCGGGCCCGGGCCCGGGGAAAGUAUUAUGUUACGCCGUUCGGAUCUGCACUU` is reported as -2.65.
The log2 enrichment of `CAAGUCCUGUGCUACACAUCGUAUGUACCGAAUCGGGUGGGAAAAAAAGGGUGGGAAAGUAUUAUGUUACGCCGUUCGGAUCUGCACUUC` is reported as -0.382.
The log2 enrichment of `UCAAGUCCUGUGCUACACAUCGUAUGUACCGAAUCGGAGGUUUUUGGAAAAAGGAAAGUAUUAUGUUACGCCGUUCGGAUCUGCACUUCC` is reported as -1.88.
The log2 enrichment of `GCAGGAAGUAAAAACAACUGGAAAUGCUUCGGAUAGUGGCAGGGGUGGGGGUUGCUAAGGAAAGGGUGGGAUGGGAGUGGGUAAAGAGUU` is reported as 1.24.
The log2 enrichment of `CCUCAAGUCCUGUGCUACACAUCGUAUGUACCGAAUCGGUUUGGUUUGGUGGAAAGUAUUAUGUUACGCCGUUCGGAUCUGCACUUCCAG` is reported as -0.925.
The log2 enrichment of `ACCAUGCUGGUGGGCAUCUUUGGGAAGUGGGGCAAGGGGGGGAUAGGGAGGGGGGUAACACUUUGGGAACAGGUGGUCCCAGGUCGUUUC` is reported as 1.32.
`AGUUCUAUCUCUGGGGUGACUGCCGCAUAUAACCGAGAACAGCUGUGGCUGGCCAAUGAAGGCCUGAUCACCAGGCUGCAGGCUCGCUGC` has a log2 enrichment of -1.04.
For `ACCAUGCAGGUGGGCAUCUUUGGGAAGUGGGGCAAGGGGGGGAUAGGGAGGGGGGUAACACUUUGGGAAGAGGUGGUCCCAGGUCGUUUC`, the log2 enrichment was 1.33.

Study 3
Target: RNA binding protein fox-1 homolog 2, RRM domain, GST-SBP tag (RBFOX2, Homo sapiens, UniProt O43251-10, residues 100-194)
Method: RNA Bind-n-Seq
Form: RNA
Medium: in vitro
Tested at: 365 nM
Setting: natural RNA segment, single round, ends assumed
Reference: no-protein control
Reading: higher = stronger binding
Shared flanks, not repeated: GGGAGUUCUACAGUCCGACGAUC … UGGAAUUCUCGGGUGCCAA
`UUCUGUAACCCAGGCUGGUCUUUGCUUUUACUGAACAUCCAAACGUUAUUUAUAUUUUAAUUUUAUGUACUCAUUUCUUUUUGUUUUCCUCAAACAGCAUGUUGUUGUUG` — result for “RBNS enrichment (R)”: 4.13.
For `GUAAUGAGAAGUCUUACGUACAACAUAGCUGUGGUGGCUUAAUGGCUGCAUUAGAUAGGAUCCUCACAUCCCAUUCAGAACCAAAACUGAUACAGUGAAACAAUUAAGGU`, “RBNS enrichment (R)” read 0.378.
For `GCUUUUAAGAGAGCCAUCAGUUAGCUAUCAGACUCUAGGUUGAUGCAUUUUGUACUUAGCUGUACUGUGUGAUAUUUUUCAUUAUUUUAGGACGCCAACAUGAGACCUGU`, “RBNS enrichment (R)” read 0.835.
`AAGUAUUAUUUUUACUGUUAAGAUUUUUUUUAAAUGUGAAAUGAAAUGUAAUGUUUUUACAGCAAUGAUAUGAAAUAUAUUUUAUAAGGAAUAAAAUGGUACAUUGUCUG`: “RBNS enrichment (R)” 0.666.
For `CGUCCUCGUGAGAUGAGAGCCUGAGCCAGGCAGCAGAGCGCUCGCUGCUGUGUAGACUGUAGGCUGCCUGGUGUGUCUGAUGAGAAGCGUCCGUCCUCGAGCCAGGCGGG`, “RBNS enrichment (R)” read 1.55.
`AAGGUGGGCAGUCCAGGUUACAGUUGAUGAAGGAAACAGUGCCUGUCUGCCUCUCAUGUGUGACCCCAAGGCAGCCAGGCUGUCACUGCUGCUGUCACAGGCUGACACCU` — result for “RBNS enrichment (R)”: 0.628.
`UAAACAGCACUAGUACUGUACACUGGUUUUUUUCCCUUGUGUUUGCUGUUGCACACUGAUUGCUGAGGGUGCAUCAAUUACAAGCAUUGAAUACUCCAUCCCCUUCCCUC`: “RBNS enrichment (R)” 0.74.
`AGCUGUGAUCCAGGAUGGCAUGCUCACGUGCGGAAUGCAAUUUUGCCACCGGUUUGUAAUGUGGGUUUUGUUUCUCUCUAGACUUGCCUCUCACUGCUUUUUGUCUGAAA` — result for “RBNS enrichment (R)”: 4.82.

Study 4
Target: Histone acetyltransferase KAT6A, both winged helices, GST fusion (KAT6A, Homo sapiens, UniProt Q92794, residues 1-181)
Method: protein binding microarray
Form: double-stranded DNA, one strand shown
Medium: in vitro
Tested at: not given
Setting: 8-mer, flanks averaged, mean of 2 arrays, mostly near background
Reference: not given
Reading: higher = stronger binding
Construct (chain): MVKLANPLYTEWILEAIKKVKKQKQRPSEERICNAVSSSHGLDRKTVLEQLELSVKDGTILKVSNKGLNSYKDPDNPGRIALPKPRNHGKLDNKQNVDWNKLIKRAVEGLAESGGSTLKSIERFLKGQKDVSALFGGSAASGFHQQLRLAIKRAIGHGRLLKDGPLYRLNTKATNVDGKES
`AGTCTACC` has an E-score of 0.0877.
With `ATTGGTCC` the E-score was -0.0121.
For `ATACCCAG`, the E-score was -0.149.
`GTGTACCA` has an E-score of 0.0318.
`AACGAACG` has an E-score of 0.0581.
`CTAACTGC` has an E-score of -0.131.
With `CCCAAAGC` the E-score was -0.0765.
`TGGAGACA` gave an E-score of -0.121.
`CGGGCCAG` has an E-score of 0.0425.
The E-score of `CGGTGTCC` is reported as 0.215.
`CCTAAAGC` has an E-score of -0.0469.
With `ACCCCTCA` the E-score was -0.15.
The E-score of `AGTTAACA` is reported as -0.0104.
With `GTATTGCA` the E-score was -0.0586.
The E-score of `CAACCGGA` is reported as 0.136.
`ACAGTAGG` gave an E-score of -0.153.
With `TCATCTCA` the E-score was -0.13.

A few entries again (study 3):
`UUCUGUAACCCAGGCUGGUCUUUGCUUUUACUGAACAUCCAAACGUUAUUUAUAUUUUAAUUUUAUGUACUCAUUUCUUUUUGUUUUCCUCAAACAGCAUGUUGUUGUUG` — result for “RBNS enrichment (R)”: 4.13.
For `GUAAUGAGAAGUCUUACGUACAACAUAGCUGUGGUGGCUUAAUGGCUGCAUUAGAUAGGAUCCUCACAUCCCAUUCAGAACCAAAACUGAUACAGUGAAACAAUUAAGGU`, “RBNS enrichment (R)” read 0.378.
For `GCUUUUAAGAGAGCCAUCAGUUAGCUAUCAGACUCUAGGUUGAUGCAUUUUGUACUUAGCUGUACUGUGUGAUAUUUUUCAUUAUUUUAGGACGCCAACAUGAGACCUGU`, “RBNS enrichment (R)” read 0.835.
`AAGUAUUAUUUUUACUGUUAAGAUUUUUUUUAAAUGUGAAAUGAAAUGUAAUGUUUUUACAGCAAUGAUAUGAAAUAUAUUUUAUAAGGAAUAAAAUGGUACAUUGUCUG`: “RBNS enrichment (R)” 0.666.
For `CGUCCUCGUGAGAUGAGAGCCUGAGCCAGGCAGCAGAGCGCUCGCUGCUGUGUAGACUGUAGGCUGCCUGGUGUGUCUGAUGAGAAGCGUCCGUCCUCGAGCCAGGCGGG`, “RBNS enrichment (R)” read 1.55.
`AAGGUGGGCAGUCCAGGUUACAGUUGAUGAAGGAAACAGUGCCUGUCUGCCUCUCAUGUGUGACCCCAAGGCAGCCAGGCUGUCACUGCUGCUGUCACAGGCUGACACCU` — result for “RBNS enrichment (R)”: 0.628.
`UAAACAGCACUAGUACUGUACACUGGUUUUUUUCCCUUGUGUUUGCUGUUGCACACUGAUUGCUGAGGGUGCAUCAAUUACAAGCAUUGAAUACUCCAUCCCCUUCCCUC`: “RBNS enrichment (R)” 0.74.
